Measured values pooled from the literature.
Lines come from different studies, so protocols differ. ± marks the error that the study gave.
Histone acetyltransferase RTT109 with Vps75: Histone acetyltransferase RTT109, with Vps75 (Saccharomyces cerevisiae, UniProt Q07794)
UniProt Q07794, sequence (whole entry, looked up): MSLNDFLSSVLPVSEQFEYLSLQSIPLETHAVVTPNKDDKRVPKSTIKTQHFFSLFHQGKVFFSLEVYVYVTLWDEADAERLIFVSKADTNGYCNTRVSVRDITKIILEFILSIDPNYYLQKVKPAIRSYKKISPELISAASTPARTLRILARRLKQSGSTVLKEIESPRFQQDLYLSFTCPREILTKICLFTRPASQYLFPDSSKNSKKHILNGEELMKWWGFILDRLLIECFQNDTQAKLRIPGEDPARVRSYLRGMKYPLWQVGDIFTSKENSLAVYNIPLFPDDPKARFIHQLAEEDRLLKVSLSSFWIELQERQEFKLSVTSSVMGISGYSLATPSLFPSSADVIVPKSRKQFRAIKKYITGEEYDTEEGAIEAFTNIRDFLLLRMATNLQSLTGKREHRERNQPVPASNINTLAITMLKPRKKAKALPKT
7-alpha-hydroxycholest-4-en-3-one 12-alpha-hydroxylase: 7-alpha-hydroxycholest-4-en-3-one 12-alpha-hydroxylase (Homo sapiens, UniProt Q9UNU6)
UniProt Q9UNU6, sequence (whole entry, looked up): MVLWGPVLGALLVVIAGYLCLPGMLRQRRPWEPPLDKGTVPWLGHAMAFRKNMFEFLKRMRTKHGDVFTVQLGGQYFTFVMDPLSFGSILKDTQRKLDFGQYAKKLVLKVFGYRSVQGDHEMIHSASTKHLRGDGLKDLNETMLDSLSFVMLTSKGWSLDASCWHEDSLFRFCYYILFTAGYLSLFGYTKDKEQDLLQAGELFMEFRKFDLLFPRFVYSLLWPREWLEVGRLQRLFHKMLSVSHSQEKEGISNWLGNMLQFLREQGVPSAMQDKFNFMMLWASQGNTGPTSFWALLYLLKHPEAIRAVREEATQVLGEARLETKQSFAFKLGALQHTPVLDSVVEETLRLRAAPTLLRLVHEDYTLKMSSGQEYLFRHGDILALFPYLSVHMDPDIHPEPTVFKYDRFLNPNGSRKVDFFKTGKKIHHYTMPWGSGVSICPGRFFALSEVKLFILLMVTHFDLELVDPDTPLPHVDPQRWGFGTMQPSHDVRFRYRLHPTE
ALDH2: Aldehyde dehydrogenase, mitochondrial (ALDH2, Homo sapiens, UniProt P05091)
UniProt P05091, sequence (whole entry, looked up): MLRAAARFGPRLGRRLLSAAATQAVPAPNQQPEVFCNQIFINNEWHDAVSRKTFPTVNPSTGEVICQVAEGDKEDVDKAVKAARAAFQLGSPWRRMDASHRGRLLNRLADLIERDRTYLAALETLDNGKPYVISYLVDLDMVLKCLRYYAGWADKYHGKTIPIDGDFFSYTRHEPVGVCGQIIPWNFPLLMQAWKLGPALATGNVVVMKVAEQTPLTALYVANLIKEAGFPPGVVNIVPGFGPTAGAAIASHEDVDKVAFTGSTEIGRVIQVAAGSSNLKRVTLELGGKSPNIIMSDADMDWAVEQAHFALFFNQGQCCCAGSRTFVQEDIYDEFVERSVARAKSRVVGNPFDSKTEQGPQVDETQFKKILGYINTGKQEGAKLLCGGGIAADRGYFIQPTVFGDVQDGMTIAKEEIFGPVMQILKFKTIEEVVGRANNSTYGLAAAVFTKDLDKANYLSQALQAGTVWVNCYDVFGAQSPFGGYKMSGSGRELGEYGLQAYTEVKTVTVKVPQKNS
UniProt O00444, sequence (whole entry, looked up): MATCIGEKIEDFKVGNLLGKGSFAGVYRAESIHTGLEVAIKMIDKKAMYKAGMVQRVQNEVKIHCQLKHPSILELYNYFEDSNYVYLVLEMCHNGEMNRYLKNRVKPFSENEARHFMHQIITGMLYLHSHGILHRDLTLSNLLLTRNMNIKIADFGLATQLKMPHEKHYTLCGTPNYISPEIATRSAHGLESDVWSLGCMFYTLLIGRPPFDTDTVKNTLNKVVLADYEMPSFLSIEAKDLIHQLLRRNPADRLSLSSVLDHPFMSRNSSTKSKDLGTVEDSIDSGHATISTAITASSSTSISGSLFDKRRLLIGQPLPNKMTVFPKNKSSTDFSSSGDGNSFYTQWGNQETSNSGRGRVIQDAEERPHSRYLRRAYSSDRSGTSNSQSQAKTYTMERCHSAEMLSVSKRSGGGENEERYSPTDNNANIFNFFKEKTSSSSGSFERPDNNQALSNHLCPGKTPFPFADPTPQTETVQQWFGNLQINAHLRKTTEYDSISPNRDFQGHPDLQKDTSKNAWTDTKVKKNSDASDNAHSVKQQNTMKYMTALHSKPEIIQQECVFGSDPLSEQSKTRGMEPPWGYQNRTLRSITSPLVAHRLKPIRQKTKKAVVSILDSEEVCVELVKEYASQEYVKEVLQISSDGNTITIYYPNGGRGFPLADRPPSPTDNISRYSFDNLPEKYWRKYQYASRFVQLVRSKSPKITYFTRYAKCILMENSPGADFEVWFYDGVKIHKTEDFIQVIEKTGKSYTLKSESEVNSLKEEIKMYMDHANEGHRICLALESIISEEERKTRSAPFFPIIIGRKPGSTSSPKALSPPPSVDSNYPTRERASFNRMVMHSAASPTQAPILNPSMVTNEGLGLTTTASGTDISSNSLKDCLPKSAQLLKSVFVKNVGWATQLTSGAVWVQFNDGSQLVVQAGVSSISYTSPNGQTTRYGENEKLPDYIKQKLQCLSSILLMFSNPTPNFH
UniProt Q16774, sequence (whole entry, looked up): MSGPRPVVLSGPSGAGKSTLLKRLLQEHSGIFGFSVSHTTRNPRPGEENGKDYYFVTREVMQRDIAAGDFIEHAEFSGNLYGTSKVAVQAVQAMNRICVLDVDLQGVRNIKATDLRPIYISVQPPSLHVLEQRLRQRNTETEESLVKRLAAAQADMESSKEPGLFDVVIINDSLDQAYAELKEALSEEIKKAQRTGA
UniProt P98095, sequence (whole entry, looked up): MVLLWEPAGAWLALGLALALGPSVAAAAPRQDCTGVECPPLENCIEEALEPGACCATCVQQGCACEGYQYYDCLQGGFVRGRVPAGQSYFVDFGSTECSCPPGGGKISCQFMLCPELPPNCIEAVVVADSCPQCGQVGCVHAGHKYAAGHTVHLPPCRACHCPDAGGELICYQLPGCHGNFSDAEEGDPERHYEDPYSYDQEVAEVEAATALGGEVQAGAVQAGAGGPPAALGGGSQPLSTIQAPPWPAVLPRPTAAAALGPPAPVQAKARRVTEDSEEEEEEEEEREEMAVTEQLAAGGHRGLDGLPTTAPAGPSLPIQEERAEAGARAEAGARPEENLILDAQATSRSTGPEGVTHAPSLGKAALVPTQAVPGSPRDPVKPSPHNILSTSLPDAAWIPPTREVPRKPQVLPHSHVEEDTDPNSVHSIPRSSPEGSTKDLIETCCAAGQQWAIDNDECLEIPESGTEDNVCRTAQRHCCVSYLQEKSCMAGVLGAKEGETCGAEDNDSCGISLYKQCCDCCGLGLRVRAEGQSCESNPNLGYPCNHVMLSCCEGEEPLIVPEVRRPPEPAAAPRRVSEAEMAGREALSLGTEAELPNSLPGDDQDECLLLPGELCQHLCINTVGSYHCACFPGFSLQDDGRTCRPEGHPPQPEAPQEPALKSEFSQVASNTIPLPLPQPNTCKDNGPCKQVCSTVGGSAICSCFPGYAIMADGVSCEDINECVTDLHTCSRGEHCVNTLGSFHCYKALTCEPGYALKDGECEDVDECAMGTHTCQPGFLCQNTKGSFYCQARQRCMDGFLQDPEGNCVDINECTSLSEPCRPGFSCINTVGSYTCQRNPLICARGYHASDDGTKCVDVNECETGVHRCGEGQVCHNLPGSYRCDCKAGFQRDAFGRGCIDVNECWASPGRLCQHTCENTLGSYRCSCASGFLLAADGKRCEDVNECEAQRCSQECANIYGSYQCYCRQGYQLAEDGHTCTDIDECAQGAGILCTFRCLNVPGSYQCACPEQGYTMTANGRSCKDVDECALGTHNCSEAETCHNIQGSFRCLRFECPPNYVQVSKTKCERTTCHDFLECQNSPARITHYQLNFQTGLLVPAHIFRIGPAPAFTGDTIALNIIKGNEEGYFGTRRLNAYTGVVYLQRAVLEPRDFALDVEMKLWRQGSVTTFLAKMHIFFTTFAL
UniProt P01106, sequence (whole entry, looked up): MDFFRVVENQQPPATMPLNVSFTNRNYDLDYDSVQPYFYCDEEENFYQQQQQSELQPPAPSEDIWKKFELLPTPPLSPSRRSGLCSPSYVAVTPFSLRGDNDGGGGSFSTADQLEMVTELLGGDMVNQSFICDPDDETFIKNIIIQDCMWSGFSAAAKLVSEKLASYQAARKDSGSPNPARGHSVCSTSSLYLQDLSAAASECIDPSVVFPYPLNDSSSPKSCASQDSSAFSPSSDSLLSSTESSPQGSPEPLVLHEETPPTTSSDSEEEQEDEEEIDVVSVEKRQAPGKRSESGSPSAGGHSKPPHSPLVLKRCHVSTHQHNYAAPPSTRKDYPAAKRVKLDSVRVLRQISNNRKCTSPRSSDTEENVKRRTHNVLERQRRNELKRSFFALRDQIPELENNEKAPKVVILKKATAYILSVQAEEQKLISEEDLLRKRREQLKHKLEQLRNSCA
UniProt P35222, sequence (141-305, looked up): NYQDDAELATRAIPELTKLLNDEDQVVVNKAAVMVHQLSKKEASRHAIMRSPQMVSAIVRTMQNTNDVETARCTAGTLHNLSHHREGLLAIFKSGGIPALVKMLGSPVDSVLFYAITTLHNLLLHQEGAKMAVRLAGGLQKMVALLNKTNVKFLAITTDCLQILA

For O=S1(=O)C=C(Sc2nnc[nH]2)c2ccccc21, the IC50 was greater than 125 µM (Histone acetyltransferase RTT109 with Vps75; enzyme activity, inhibitor, HTS, CPM-based, dose response).
With O=C(O)CC(O)(CC(=O)O)C(=O)O the Kd was less than 0.005 µM (uncharacterized protein (Pelagibacter ubique, UniProt Q4FLC8); binding, direct isothermal titration calorimetry; Candidatus Pelagibacter ubique; with: MgSO4 53 mM).
The Kd of O=c1ccn([C@@H]2O[C@H](COP(=O)(O)OP(=O)(O)O)[C@@H](O)[C@H]2O)c(=O)[nH]1 is reported as 890 ± 10 µM (ABO (Homo sapiens, UniProt P16442, G235S/G268A/L266M/R176G/W181M); methyl-TROSY NMR titration lineshape analysis; apo mutant enzyme).
For Cc1ccnc([18F])c1-c1cccc(N2C[C@H](N3CCN(C(=O)c4nccs4)CC3)CC2=O)c1, the Kd was 0.00125 µM (Monoglyceride lipase (Macaca mulatta, UniProt H9ESL3); PET Scatchard analysis; rhesus monkey, cerebellum).
The Kd of Clc1ccc(COC(Cn2ccnc2)c2ccc(Cl)cc2Cl)c(Cl)c1 (stereo not shown) is reported as 0.0982 µM (7-alpha-hydroxycholest-4-en-3-one 12-alpha-hydroxylase; binding, Soret peak shift titration; 20% glycerol).
Cn1cc(CNCC2CCN(c3ncc(C(=O)NO)cn3)CC2)c2ccccc21 has a Kd of greater than 30.2 µM (ALDH2; inhibitor, competition pulldown; SW620 and MV4-11 lysate; 1 h).
With Cc1[nH]c2ccccc2c1-c1csc(-c2c[nH]c3ccccc23)n1 the Kd was 12.9 µM (Bromodomain-containing protein 4, phosphorylated (BRD4, Homo sapiens, UniProt O60885); microscale thermophoresis).
Cc1cc(Nc2cc3ncccc3c(N[C@@H]3C[C@H]4CC[C@@H](C3)N4CCC#N)n2)n[nH]1 has a Kd of 0.023 µM (PLK4 (Homo sapiens, UniProt O00444); binding, KINOMEscan).
NCCS(=O)(=O)O gave a Kd of 25.8 ± 6.33 µM (SLC6A6 (Homo sapiens, UniProt P31641, E406A); microscale thermophoresis; E406A mutant).
The Kd of O=C(C[C@@H](C(F)F)n1ccc(F)n1)N1CCC(O)(Cn2cnc3c(cnn3-c3ccc(F)cc3)c2=O)CC1 is reported as 0.036 ± 0.005 µM (USP7 (Homo sapiens, UniProt Q93009, V517I); isothermal titration calorimetry; USP7 V517I).
With C#Cc1cccc(Nc2ncnc3cc(OC)c(OCCCCCCC(=O)NO)cc23)c1 the Kd was 21.6 µM (ALDH2; inhibitor, competition pulldown; SW620 and MV4-11 lysate; 1 h).
O=C(Nc1ccccc1Oc1nc2ccccc2n2cnnc12)c1cccs1 gave a Kd of 2.22 µM (Catenin beta-1, residues 141-305 (CTNNB1, Homo sapiens, UniProt P35222); binding, isothermal titration calorimetry; 25 °C).
O=C(CCCCCN1C(=O)c2cccc3cccc(c23)C1=O)NO gave a Kd of 0.342 µM (ALDH2; inhibitor, competition pulldown; SW620 and MV4-11 lysate; 1 h).
For Cc1cnc(-c2ccc(-c3ccc(NC(=O)Nc4c(F)cc(F)cc4F)cc3F)c3c2C(=O)NC3)[nH]1, the Kd was 0.024 µM (LYN (Homo sapiens, UniProt P07948); binding, KINOMEscan competition binding).
CCCN1CCN(c2ccc(-c3cncc(Cl)c3N3CCC4(CCNC4=O)CC3)cc2)CC1 gave a Kd of 0.041 µM (MED13L human; SILAC competition; LS174T-L5 lysate).
O=S(=O)(c1ccc2nsnc2c1)N1CCOCC1 has an IC50 of greater than 125 µM (Histone acetyltransferase RTT109 with Vps75; enzyme activity, inhibitor, HTS, CPM-based, dose response).
With OC(CCc1ccc(Cl)cc1)Cn1ccnc1 (stereo not shown) the Kd was 183 µM (7-alpha-hydroxycholest-4-en-3-one 12-alpha-hydroxylase; binding; 20 min, pH 7.4).
For CCN(CC)c1ccc2cc(C(=O)NCCNC(=O)c3ccc(-c4cc(-c5ccc(C#N)cc5)nc(-c5ccco5)c4)cc3)c(=O)oc2c1, the Kd was 0.05 ± 0.013 µM (Myc proto-oncogene protein, with MAX (MYC, Homo sapiens, UniProt P01106); binding, surface plasmon resonance).
CCCCc1nc2cc(/C=C/C(=O)NO)ccc2n1CCN(CC)CC has a Kd of greater than 30.2 µM (ALDH2; inhibitor, competition pulldown; SW620 and MV4-11 lysate; 1 h).
CC[C@H](C)[C@H](NC(=O)[C@H](Cc1ccc(OP(=O)(O)O)cc1)NC(=O)[C@H](CC(N)=O)NC(=O)[C@H](CC(C)C)NC(=O)[C@@H](N)CO)C(=O)N[C@@H](CC(=O)O)C(=O)N[C@@H](CC(C)C)C(=O)N[C@@H](CC(=O)O)C(=O)N[C@@H](CC(C)C)C(=O)N[C@H](C(=O)N[C@@H](CCCCN)C(=O)O)C(C)C has an EC50 of 0.25 ± 0.05 µM (PTPN11 (Homo sapiens, UniProt Q06124, D485R/S502P); enzyme activity, activator; pH 7.0, 2% DMSO, with: DiFMUP 100 µM, phosphopeptide).
Nc1ccn([C@@H]2O[C@H](COP(=O)(O)OP(=O)(O)O)[C@@H](O)[C@H]2O)c(=O)n1 gave a Kd of 3.9 ± 0.2 µM (RNASE1 (Bos taurus, UniProt P61823); native MS, single-point).
With CC(C)c1c(-c2cccc3[nH]ccc23)[nH]c(C(=O)O)c1-c1c(Cl)ccc2[nH]ccc12 the Kd was 1.7 to 2.8 µM (BMI1/RNF2 (Homo sapiens, UniProt P35226+Q99496); isothermal titration calorimetry).
For C/C=C1\NC(=O)[C@H]2CSSCC/C=C/[C@H](CC(=O)N[C@H](C(C)C)C(=O)N2)OC(=O)[C@H](C(C)C)NC1=O, the Kd was greater than 30.2 µM (ALDH2; inhibitor, competition pulldown; SW620 and MV4-11 lysate; 1 h).
For Cn1cncc1[C@@](N)(c1ccc(Cl)cc1)c1ccc2c(c1)c(-c1cccc(Cl)c1)cc(=O)n2C, the Kd was 9.75 µM (7-alpha-hydroxycholest-4-en-3-one 12-alpha-hydroxylase; binding; 20 min, pH 7.4).
For CN(C)Cc1c(C(=O)NCCOc2ccc(C(=O)NO)cc2)oc2ccccc12, the Kd was greater than 30.2 µM (ALDH2; inhibitor, competition pulldown; SW620 and MV4-11 lysate; 1 h).
For CCC(=O)N1CCC(C(=O)NCC(=O)N2CCN(c3nc(-c4cnc(N)nc4C(F)F)nc(N4CCOCC4)n3)CC2)CC1, the Kd was 0.00013 µM (PIK3CA (Homo sapiens, UniProt P42336)).
With Nc1[nH]ncc1-c1ccccc1 the Kd was 191 µM (7-alpha-hydroxycholest-4-en-3-one 12-alpha-hydroxylase; binding; 20 min, pH 7.4).
Cc1cc2nc3c(=O)[nH]c(=O)nc-3n(C[C@H](O)[C@H](O)[C@H](O)COP(=O)(O)OP(=O)(O)OC[C@H]3O[C@@H](n4cnc5c(N)ncnc54)[C@H](O)[C@@H]3O)c2cc1C has a Kd of 66.1 µM (Fibulin-2 (FBLN2, Homo sapiens, UniProt P98095); binding, MS pulldown competition; SW-620 cell lysate).
The Kd of NC(=O)c1ccc[n+]([C@@H]2O[C@H](COP(=O)([O-])OP(=O)(O)OC[C@H]3O[C@@H](n4cnc5c(N)ncnc54)[C@H](O)[C@@H]3O)[C@@H](O)[C@H]2O)c1 is reported as 80 µM (IMPDH2 (Homo sapiens, UniProt P12268); binding to E-IMP complex, pre-steady-state kinetics).
The Kd of OC[C@@H]1CO[C@](Cn2ccnc2)(c2ccc(Cl)cc2Cl)O1 (relative stereo) is reported as 147 µM (7-alpha-hydroxycholest-4-en-3-one 12-alpha-hydroxylase; binding; 20 min, pH 7.4).
O=C(CCCCCCC(=O)Nc1ccccc1)NO gave a Kd of 0.541 µM (ALDH2; inhibitor, competition pulldown; SW620 and MV4-11 lysate; 1 h).
With NCCS(=O)(=O)O the Kd was 0.062 ± 0.012 µM (uncharacterized protein (Pelagibacter ubique, UniProt Q4FMG4); isothermal titration calorimetry; Candidatus Pelagibacter ubique; one-set-of-sites model).
Nc1ccccc1NC(=O)c1ccc(CNc2nccc(-c3cccnc3)n2)cc1 gave a Kd of greater than 30.2 µM (ALDH2; inhibitor, competition pulldown; SW620 and MV4-11 lysate; 1 h).
Nc1ncnc2c1ncn2[C@@H]1O[C@H](CO[P@](=O)(O)O[P@](=O)(O)O[P@@](=O)(O)S)[C@@H](O)[C@H]1O gave a Kd of 42 ± 2 µM (GUK1 (Homo sapiens, UniProt Q16774); binding, ITC; with: ADP).

For quick reference, copied from above:
For CN(C)Cc1c(C(=O)NCCOc2ccc(C(=O)NO)cc2)oc2ccccc12, the Kd was greater than 30.2 µM (ALDH2; inhibitor, competition pulldown; SW620 and MV4-11 lysate; 1 h).
For CCC(=O)N1CCC(C(=O)NCC(=O)N2CCN(c3nc(-c4cnc(N)nc4C(F)F)nc(N4CCOCC4)n3)CC2)CC1, the Kd was 0.00013 µM (PIK3CA (Homo sapiens, UniProt P42336)).
With Nc1[nH]ncc1-c1ccccc1 the Kd was 191 µM (7-alpha-hydroxycholest-4-en-3-one 12-alpha-hydroxylase; binding; 20 min, pH 7.4).
Cc1cc2nc3c(=O)[nH]c(=O)nc-3n(C[C@H](O)[C@H](O)[C@H](O)COP(=O)(O)OP(=O)(O)OC[C@H]3O[C@@H](n4cnc5c(N)ncnc54)[C@H](O)[C@@H]3O)c2cc1C has a Kd of 66.1 µM (Fibulin-2 (FBLN2, Homo sapiens, UniProt P98095); binding, MS pulldown competition; SW-620 cell lysate).
